# Results pooled from the literature.
# Each line is one published result; not all experiments were run side by side. Numbers after ± are the reported error.
# Organism: Salmonella typhimurium
SMILES,assay,test system,conditions,scale,measurement,result
Fc1ccc(C2=CCNCC2)cc1,SOS/umu test,TA1535/pSK1002,"0.008 mg/mL, 4 h, without S9, full range",,survival,92.5%
Cc1cc(C(=O)NC(C)(C)COc2cccc3c2C(N)=NS(=O)(=O)N3)cc(C)n1,"Ames test, initial",TA100,150 µg/plate,reference: solvent control,revertant ratio,1.2
O=[N+]([O-])c1ccc(N2CCC(NCCC(O)c3ccc(F)c4ccccc34)CC2)c(C(F)(F)F)c1 (stereo not shown),"genotoxicity, SOS/umu test",TA1535/pSK1002,"0.004 mg/mL, 4 h, without S9, full range",,induction factor,1.06
N#C[C@@]1(n2ccc(N)nc2=O)O[C@H](CO)[C@@H](O)[C@H]1O,,TA98,"1.2 µM, without S9",,viability,94%
CC(C)N(C)N=O,"mutagenicity, Ames plate incorporation",TA100,"1500 µg/plate, 3 d, without S9, methanol",,revertant colonies per plate,162 ± 4
O=[N+]([O-])c1ccc(N2CCN(CCC(O)c3ccc(F)cc3)CC2)c(C(F)(F)F)c1 (stereo not shown),"genotoxicity, SOS/umu test",TA1535/pSK1002,"0.004 mg/mL, 4 h, with S9, lower range",,induction factor,1.1
O=NN1CCN(C2CCCC2)CC1,"mutagenicity, Ames plate incorporation",TA98,"50 µg/plate, 3 d, without S9, methanol",,revertant colonies per plate,31 ± 4
CC(=O)N1CCC(C(=O)N2CCN3C(=O)c4cc(-c5ccccc5)ccc4NC(=O)C3C2)CC1 (stereo not shown),,TA98,"5000 µg/plate, added: rat liver S9",reference: vehicle,fold increase in revertants,1.1
COCCN(CCOC)N=O,"mutagenicity, Ames plate incorporation",TA100,"1500 µg/plate, 3 d, without S9, methanol",,revertant colonies per plate,126 ± 11
COc1cccc(-c2n[nH]c(SCc3ccccn3)n2)c1OC,"Ames test, plate incorporation",TA1535,"1.0 mg/plate, without S9",,revertant colonies per plate,14

# Repeated from above:
SMILES,assay,test system,conditions,scale,measurement,result
Cc1cc(C(=O)NC(C)(C)COc2cccc3c2C(N)=NS(=O)(=O)N3)cc(C)n1,"Ames test, initial",TA100,150 µg/plate,reference: solvent control,revertant ratio,1.2
